# Measurements gathered from unrelated publications.
# Numbered parts are unrelated; each lists some results of a single study. Values joined by “and” are separate records of one study, mostly repeats; a detail may differ.
# Sequence of UniProt P32298 (whole entry, looked up): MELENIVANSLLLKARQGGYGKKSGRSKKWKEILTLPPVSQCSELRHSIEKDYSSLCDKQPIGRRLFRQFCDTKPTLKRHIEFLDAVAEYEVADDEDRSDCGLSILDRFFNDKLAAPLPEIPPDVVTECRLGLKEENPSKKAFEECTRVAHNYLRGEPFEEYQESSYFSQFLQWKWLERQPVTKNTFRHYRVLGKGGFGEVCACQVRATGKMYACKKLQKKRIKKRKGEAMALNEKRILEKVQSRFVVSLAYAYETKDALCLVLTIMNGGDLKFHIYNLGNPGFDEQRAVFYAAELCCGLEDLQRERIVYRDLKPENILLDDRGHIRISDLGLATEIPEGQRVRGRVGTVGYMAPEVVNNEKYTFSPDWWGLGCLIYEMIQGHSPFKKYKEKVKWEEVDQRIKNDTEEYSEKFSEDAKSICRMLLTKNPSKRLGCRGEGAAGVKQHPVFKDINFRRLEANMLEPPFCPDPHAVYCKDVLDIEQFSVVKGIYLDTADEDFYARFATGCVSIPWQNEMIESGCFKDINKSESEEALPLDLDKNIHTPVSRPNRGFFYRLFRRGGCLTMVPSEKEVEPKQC
# Sequence of UniProt Q9UK32 (whole entry, looked up): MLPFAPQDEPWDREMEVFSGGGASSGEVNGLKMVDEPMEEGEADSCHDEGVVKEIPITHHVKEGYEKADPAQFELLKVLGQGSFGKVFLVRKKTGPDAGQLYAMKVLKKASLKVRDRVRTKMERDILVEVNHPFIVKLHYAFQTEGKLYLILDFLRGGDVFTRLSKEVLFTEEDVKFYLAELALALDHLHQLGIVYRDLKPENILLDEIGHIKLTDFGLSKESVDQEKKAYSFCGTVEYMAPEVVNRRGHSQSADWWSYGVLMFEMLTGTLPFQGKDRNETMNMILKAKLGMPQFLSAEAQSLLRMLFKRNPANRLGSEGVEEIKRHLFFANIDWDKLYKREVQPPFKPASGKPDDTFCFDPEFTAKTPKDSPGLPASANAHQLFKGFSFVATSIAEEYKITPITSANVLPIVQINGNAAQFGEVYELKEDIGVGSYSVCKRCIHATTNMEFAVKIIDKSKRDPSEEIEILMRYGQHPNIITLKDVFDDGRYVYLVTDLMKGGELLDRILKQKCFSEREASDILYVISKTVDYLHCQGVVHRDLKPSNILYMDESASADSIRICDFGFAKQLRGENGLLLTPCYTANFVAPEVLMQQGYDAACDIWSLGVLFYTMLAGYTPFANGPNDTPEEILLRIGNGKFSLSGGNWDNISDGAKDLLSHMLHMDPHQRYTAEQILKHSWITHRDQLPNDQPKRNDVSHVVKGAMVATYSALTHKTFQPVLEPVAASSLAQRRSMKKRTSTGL
# Sequence of UniProt Q12852 (whole entry, looked up): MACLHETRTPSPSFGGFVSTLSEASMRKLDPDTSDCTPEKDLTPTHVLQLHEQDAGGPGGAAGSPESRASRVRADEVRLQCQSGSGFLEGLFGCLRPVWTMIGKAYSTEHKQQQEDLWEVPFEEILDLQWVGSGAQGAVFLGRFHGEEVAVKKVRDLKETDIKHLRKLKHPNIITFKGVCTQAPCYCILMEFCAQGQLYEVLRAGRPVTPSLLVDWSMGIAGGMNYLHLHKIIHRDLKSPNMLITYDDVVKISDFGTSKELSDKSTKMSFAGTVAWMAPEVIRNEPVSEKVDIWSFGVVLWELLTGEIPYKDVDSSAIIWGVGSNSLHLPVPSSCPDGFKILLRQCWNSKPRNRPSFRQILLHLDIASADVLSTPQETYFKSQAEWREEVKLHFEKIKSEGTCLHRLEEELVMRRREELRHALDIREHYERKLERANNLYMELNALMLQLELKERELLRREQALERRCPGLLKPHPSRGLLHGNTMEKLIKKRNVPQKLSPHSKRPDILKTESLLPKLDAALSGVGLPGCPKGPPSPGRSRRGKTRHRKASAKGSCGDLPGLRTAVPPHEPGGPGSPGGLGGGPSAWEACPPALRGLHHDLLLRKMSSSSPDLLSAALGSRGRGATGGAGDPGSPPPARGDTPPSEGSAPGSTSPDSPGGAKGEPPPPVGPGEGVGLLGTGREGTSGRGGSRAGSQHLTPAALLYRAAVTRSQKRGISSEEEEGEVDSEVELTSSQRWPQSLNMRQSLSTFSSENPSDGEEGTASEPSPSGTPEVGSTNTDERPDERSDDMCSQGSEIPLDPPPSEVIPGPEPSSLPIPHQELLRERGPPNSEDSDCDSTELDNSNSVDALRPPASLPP
# Sequence of UniProt Q8TF76 (whole entry, looked up): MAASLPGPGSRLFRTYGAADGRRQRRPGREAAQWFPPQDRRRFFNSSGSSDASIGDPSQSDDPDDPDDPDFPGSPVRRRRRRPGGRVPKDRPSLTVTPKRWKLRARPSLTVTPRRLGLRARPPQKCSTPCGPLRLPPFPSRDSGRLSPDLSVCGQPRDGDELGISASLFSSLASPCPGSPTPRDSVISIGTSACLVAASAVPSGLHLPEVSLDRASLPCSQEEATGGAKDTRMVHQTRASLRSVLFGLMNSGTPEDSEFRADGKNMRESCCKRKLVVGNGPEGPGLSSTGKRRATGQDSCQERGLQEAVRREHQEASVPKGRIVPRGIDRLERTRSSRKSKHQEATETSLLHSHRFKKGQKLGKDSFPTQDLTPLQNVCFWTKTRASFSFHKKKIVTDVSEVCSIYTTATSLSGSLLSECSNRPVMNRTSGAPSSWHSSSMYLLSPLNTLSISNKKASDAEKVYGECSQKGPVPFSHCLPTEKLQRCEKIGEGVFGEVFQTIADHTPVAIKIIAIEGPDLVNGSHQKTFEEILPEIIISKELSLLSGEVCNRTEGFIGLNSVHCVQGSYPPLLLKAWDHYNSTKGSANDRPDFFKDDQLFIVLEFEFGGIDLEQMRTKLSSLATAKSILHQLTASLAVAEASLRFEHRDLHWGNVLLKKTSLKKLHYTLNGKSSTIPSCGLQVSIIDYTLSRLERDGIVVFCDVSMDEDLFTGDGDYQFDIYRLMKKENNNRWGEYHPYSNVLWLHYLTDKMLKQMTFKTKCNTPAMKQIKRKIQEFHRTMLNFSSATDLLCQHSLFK
# Sequence of UniProt Q05397 (whole entry, looked up): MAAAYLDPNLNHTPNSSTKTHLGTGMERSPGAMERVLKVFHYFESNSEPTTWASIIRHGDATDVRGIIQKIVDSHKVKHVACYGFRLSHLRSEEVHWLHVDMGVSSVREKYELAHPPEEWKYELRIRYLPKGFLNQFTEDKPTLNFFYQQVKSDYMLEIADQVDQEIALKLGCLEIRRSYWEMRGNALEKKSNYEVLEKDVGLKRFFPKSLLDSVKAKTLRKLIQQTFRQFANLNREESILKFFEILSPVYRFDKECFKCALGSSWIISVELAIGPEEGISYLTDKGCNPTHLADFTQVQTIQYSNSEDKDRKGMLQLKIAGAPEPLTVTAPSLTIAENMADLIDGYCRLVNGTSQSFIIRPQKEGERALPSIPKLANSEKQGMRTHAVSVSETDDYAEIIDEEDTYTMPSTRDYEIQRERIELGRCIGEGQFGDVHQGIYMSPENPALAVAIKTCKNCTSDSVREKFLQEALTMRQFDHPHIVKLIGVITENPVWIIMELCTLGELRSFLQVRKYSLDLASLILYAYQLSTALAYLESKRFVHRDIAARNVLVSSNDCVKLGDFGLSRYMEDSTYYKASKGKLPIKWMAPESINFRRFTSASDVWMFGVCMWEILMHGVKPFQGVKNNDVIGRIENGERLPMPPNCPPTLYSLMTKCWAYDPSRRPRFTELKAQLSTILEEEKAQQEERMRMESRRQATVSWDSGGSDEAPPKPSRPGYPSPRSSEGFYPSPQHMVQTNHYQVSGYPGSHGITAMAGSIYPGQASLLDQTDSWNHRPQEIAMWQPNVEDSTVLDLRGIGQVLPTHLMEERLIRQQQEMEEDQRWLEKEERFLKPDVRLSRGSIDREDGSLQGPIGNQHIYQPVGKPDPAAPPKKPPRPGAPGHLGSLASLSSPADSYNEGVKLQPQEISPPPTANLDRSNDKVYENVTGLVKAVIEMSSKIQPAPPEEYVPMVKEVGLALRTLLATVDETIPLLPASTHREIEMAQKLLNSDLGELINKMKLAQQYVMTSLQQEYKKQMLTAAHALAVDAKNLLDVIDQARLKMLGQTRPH
# Sequence of UniProt Q9Y2H1 (whole entry, looked up): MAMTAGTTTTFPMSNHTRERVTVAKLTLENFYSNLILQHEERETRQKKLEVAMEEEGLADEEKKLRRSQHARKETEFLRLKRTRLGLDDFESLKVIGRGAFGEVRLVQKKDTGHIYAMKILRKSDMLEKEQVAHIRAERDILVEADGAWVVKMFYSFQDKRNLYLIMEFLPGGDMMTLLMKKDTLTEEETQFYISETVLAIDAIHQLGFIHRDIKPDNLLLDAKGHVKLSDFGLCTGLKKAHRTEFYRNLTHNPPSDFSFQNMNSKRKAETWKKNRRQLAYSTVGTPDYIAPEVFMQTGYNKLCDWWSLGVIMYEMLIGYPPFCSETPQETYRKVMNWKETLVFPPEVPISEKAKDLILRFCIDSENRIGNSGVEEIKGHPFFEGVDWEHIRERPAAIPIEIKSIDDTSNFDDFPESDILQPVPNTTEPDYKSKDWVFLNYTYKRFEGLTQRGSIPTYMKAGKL

# Series 1 — host: mouse; medium: microsomes or S9; tested at: 2 µM; time: 0.5 h
Structure (SMILES),remaining compound
Clc1ccc2ccn(Cc3ccccc3Br)c2n1,4.73%
CCCn1c(=O)c2ccc(C(=O)NC(C)C)cc2n2c(=O)n(Cc3ccc(C)cc3)nc12,25.9%
Cc1ccc(Cn2cccc(NC(=O)NC3CCOC3C)c2=O)cc1 (stereo not drawn),55.7%
COc1ccc2c(CSc3nc4ccccc4o3)cc(=O)oc2c1,0%
CC1=C(c2ccc(F)cc2)S(=O)(=O)N=C1Nc1ccc2[nH]c(C(F)(F)F)nc2c1,72.6%
Cc1oc(C)c(C(=O)OC(C)C(=O)N2CC(C)OC(C)C2)c1Br (stereo not drawn),0.67%
CCN(CC)S(=O)(=O)c1ccc(S(=O)(=O)NC(C)c2nncn2C)cc1 (stereo not drawn),61.4%
CCn1[nH]cc/c1=N\C(=O)c1nn(-c2ccccc2)c(=O)c2ccccc12,35.6%
O=C(NCC1Cc2ccccc2CO1)c1cnn2c1OCCC2 (stereo not drawn),6.18%

# Series 2 — technique: competition with immobilised ligand; tested at: 1 µM
# SMILES: O=C(NCc1ncc(C(F)(F)F)cc1Cl)c1ccc2c(c1)C1(CCS(=O)(=O)CC1)[C@H](C1CC1)N2S(=O)(=O)c1ccc(F)cc1
target,assay,remaining binding
"ALK (Homo sapiens, UniProt Q9UM73, L1196M)",cell-free assay,76%
"PAK5 (Homo sapiens, UniProt Q9P286)",cell-free assay,100%
"Ribosomal protein S6 kinase alpha-3, C-terminal kinase domain (RPS6KA3, Homo sapiens, UniProt P51812)",cell-free assay,100%
"Tyrosine-protein kinase ABL1, non-phosphorylated (ABL1, Homo sapiens, UniProt P00519, H396P)",cell-free assay,100%
"Myosin-IIIb (MYO3B, Homo sapiens, UniProt Q8WXR4)",binding,74%
"STK10 (Homo sapiens, UniProt O94804)",cell-free assay,54%
"GRK4 (Homo sapiens, UniProt P32298)",cell-free assay,100%
"PIP4K2C (Homo sapiens, UniProt Q8TBX8)",cell-free assay,100%
"Ribosomal protein S6 kinase alpha-6, C-terminal kinase domain (RPS6KA6, Homo sapiens, UniProt Q9UK32)",cell-free assay,87%
"FLT1 (Homo sapiens, UniProt P17948)",cell-free assay,98%
"MAP4K1 (Homo sapiens, UniProt Q92918)",cell-free assay,100%
"HASPIN (Homo sapiens, UniProt Q8TF76)",cell-free assay,87%
"NEK10 (Homo sapiens, UniProt Q6ZWH5)",cell-free assay,94%
"STK38L (Homo sapiens, UniProt Q9Y2H1)",cell-free assay,91%
"DSTYK (Homo sapiens, UniProt Q6XUX3)",cell-free assay,76%
"FLT3 (Homo sapiens, UniProt P36888, K663Q)",cell-free assay,100%
"MAP3K19 (Homo sapiens, UniProt Q56UN5)",cell-free assay,73%
"MAP3K12 (Homo sapiens, UniProt Q12852)",cell-free assay,82%
"OXSR1 (Homo sapiens, UniProt O95747)",cell-free assay,87%
"PTK2 (Homo sapiens, UniProt Q05397)",cell-free assay,100%

# Series 3 — effect on: enzyme activity; action: inhibitor; tested at: 10 µM
# Target: Calcium/calmodulin-dependent protein kinase type II subunit alpha (CAMK2A, Homo sapiens, UniProt Q9UQM7)
# Sequence of UniProt Q9UQM7 (whole entry, looked up): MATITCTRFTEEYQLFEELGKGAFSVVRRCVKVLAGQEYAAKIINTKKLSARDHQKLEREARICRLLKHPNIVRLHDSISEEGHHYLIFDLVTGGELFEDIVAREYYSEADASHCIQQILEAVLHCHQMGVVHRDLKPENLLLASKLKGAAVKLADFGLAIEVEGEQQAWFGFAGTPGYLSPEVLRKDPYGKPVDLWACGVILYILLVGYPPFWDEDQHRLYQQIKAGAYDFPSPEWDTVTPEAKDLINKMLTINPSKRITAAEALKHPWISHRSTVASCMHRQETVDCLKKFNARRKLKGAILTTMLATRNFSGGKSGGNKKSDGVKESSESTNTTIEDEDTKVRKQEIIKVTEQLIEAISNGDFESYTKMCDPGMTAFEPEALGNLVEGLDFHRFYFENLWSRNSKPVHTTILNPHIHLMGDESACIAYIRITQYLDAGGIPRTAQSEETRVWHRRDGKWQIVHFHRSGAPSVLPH
SMILES,inhibition
O=C1OC(c2ccc(O)cc2)(c2ccc(O)cc2)c2ccccc21,-5%
C=C[C@@H]1C2=CCOC(=O)C2=CO[C@H]1O[C@@H]1O[C@H](CO[C@@H]2O[C@H](CO)[C@@H](O)[C@H](O)[C@H]2O)[C@@H](O)[C@H](O)[C@H]1O,13%
C=C(CC[C@@H](C(=O)O)[C@H]1[C@H](O)C[C@@]2(C)C3=CC[C@@H](C(=C)C)[C@](C)(CCC(=O)O)C3=CC[C@]12C)C(C)C,-13%
CC1(C)S[C@@H]2[C@H](NC(=O)C(C(=O)Oc3ccc4c(c3)CCC4)c3ccccc3)C(=O)N2[C@H]1C(=O)O (stereo partly drawn),-6%
CCOC(=O)O[C@]1(C(=O)OCCl)CC[C@H]2[C@@H]3CCC4=CC(=O)C=C[C@]4(C)[C@H]3[C@@H](O)C[C@@]21C,0%
CN1C[C@H](C(=O)N[C@]2(C)O[C@@]3(O)[C@@H]4CCCN4C(=O)[C@H](Cc4ccccc4)N3C2=O)C[C@@H]2c3cccc4[nH]cc(c34)C[C@H]21,-12%
OCC1=C[C@@H](O)[C@@H]2C=CO[C@@H](O[C@@H]3O[C@H](CO)[C@@H](O)[C@H](O)[C@H]3O)[C@H]12,28%
C[C@@H]1CC[C@@]2(OC1)O[C@H]1C[C@H]3[C@@H]4CC[C@H]5C[C@@H](O[C@@H]6O[C@H](CO)[C@H](O[C@@H]7O[C@H](CO)[C@@H](O)[C@H](O[C@@H]8OC[C@@H](O)[C@H](O)[C@H]8O)[C@H]7O[C@@H]7O[C@H](CO)[C@H](O)[C@H](O)[C@H]7O)[C@H](O)[C@H]6O)CC[C@]5(C)[C@H]4CC(=O)[C@]3(C)[C@H]1[C@@H]2C,-19%
Cn1cnc2[nH]c(=O)[nH]c(=O)c21,-33%

# Series 4 — cell line: mouse MPNST tumor cells; technique: high-content immunofluorescence imaging; refers to: nuclear SOX9; tested at: 10 µM; time: 12 h; setting: mean of 2 replicates; baseline: DMSO control; direction: higher = more nuclear SOX9
Structure (SMILES),nuclear SOX9 intensity
O=C(C1CC1)N1CC[C@@H](Cc2n[nH]c(=O)n2-c2ccc(-c3ccc4occc4c3)cc2)C1,84.9 % of DMSO
O=C(O)C(Cc1c[nH]c2ccccc12)N1C(=O)c2ccccc2C1=O (stereo not drawn),105 % of DMSO
O=C(NC12CC3CC(CC(C3)C1)C2)c1cnc2ccccc2n1,112 % of DMSO
COC(=O)c1c(-c2cc(OC)c(OC)c(OC)c2)c2ccnc(OCc3ncccn3)c2c(=O)n1Cc1ccnc(C)c1,101 % of DMSO
CC(C)N(CCCNC(=O)Nc1ccc(C(C)(C)C)cc1)C[C@H]1O[C@@H](n2cc(Br)c3c(N)ncnc32)[C@H](O)[C@@H]1O,230 % of DMSO and 152 % of DMSO
Cc1ccccc1NC(=O)Nc1ccc(CC(=O)N(C)[C@@H](CC(C)C)C(=O)NCC[C@H](NC(=O)[C@@H]2CCCN2S(=O)(=O)c2cc(Cl)cc(Cl)c2)C(=O)O)cc1,94.6 % of DMSO
Brc1ccc(CCC2(Cn3ccnc3)OCCO2)cc1,96.8 % of DMSO
C[C@@H]1C[C@H]2[C@@H]3C[C@H](F)C4=CC(=O)C=C[C@]4(C)[C@@]3(Cl)[C@@H](O)C[C@]2(C)[C@H]1C(=O)COC(=O)C(C)(C)C,74.3 % of DMSO
COc1ccc2c(NC(=O)Nc3cccc(C(F)(F)F)n3)ccnc2c1,71.2 % of DMSO
O=C(CNC(=O)c1ccc(-c2ccccc2)cc1)NC1CCCc2ccccc21 (stereo not drawn),103 % of DMSO
CC(C)Oc1cccc(-n2c(CCc3c[nH]c4ccc(Br)cc34)nc3ccccc3c2=O)c1,107 % of DMSO
CC(C)CC(=O)N[C@H](C(=O)N[C@H](C(=O)N[C@@H](CC(C)C)[C@@H](O)CC(=O)N[C@@H](C)C(=O)N[C@@H](CC(C)C)[C@@H](O)CC(=O)O)C(C)C)C(C)C,97.1 % of DMSO
CCC[C@H](N[C@@H](C)C(=O)N1[C@H](C(=O)O)C[C@@H]2CCCC[C@@H]21)C(=O)OCC,91.1 % of DMSO
